Measurements pooled from the literature.
Protocols differ between the studies behind these lines. Values joined by “and” are separate records of one study, mostly repeats; a detail may differ.
Organism: Bacillus subtilis

`NCCCC[C@H](NC(=O)[C@H](Cc1ccccc1)NC(=O)[C@H](CCC(N)=O)NC(=O)[C@H](Cc1ccccc1)NC(=O)[C@H](CCC(N)=O)NC(=O)[C@@H](N)Cc1ccccc1)C(N)=O` has an MIC of 520 µM (broth microdilution, optical density).
`CC1(C)S[C@@H]2[C@H](NC(=O)[C@H](N)c3ccccc3)C(=O)N2[C@H]1C(=O)O` has a cell perimeter of 9.41 µm and 9.74 µm and 8.98 µm (bacterial cytological profiling; ATCC 6633; concentration not given).
`CC1(C)S[C@@H]2[C@H](NC(=O)[C@H](N)c3ccc(O)cc3)C(=O)N2[C@H]1C(=O)O` — result for “zone of inhibition”: 21 mm (MTCC 1427; 10 µg/mL).
With `COc1cccc2c1C(=O)c1c(O)c3c(c(O)c1C2=O)C[C@@](O)(C(=O)CO)C[C@@H]3O[C@H]1C[C@H](N)[C@H](O)[C@H](C)O1` the cell width was 0.85 µm and 0.87 µm and 0.88 µm (bacterial cytological profiling; ATCC 6633).
The MIC of `CC(=O)C1=NN(c2ccccc2)C(=C(C#N)C(=O)c2ccc(Nc3cnccn3)cc2)S1` is reported as 50 µg/mL (broth microdilution; ATCC 35021).
`CO[C@H]1/C=C/O[C@@]2(C)Oc3c(C)c(O)c4c(O)c(c(/C=N/N5CCN(C)CC5)c(O)c4c3C2=O)NC(=O)/C(C)=C\C=C\[C@H](C)[C@H](O)[C@@H](C)[C@@H](O)[C@@H](C)[C@H](OC(C)=O)[C@@H]1C` gave a cell area of 1.3 µm² and 1.34 µm² and 1.26 µm² (bacterial cytological profiling; ATCC 6633; concentration not given).
The EC50 of `C[C@@H](O)[C@H](N)C(=O)O` is reported as 1.6 µM (chemotaxis pathway, FRET; 168).
`COc1cc(C=O)ccc1OC1=C(Cl)C(=O)c2ccccc2C1=O` has an MIC of 10 µg/mL (broth microdilution; MTCC 1427).
For `CC[C@H](C)CCCCC(=O)N[C@@H](CCN)C(=O)N[C@H](C(=O)N[C@@H](CCN)C(=O)N[C@H]1CCNC(=O)[C@H]([C@@H](C)O)NC(=O)[C@H](CCN)NC(=O)[C@H](CCN)NC(=O)[C@H](CC(C)C)NC(=O)[C@@H](CC(C)C)NC(=O)[C@H](CCN)NC1=O)[C@@H](C)O`, the MIC was 8 µg/mL (broth microdilution; 168, cation-adjusted Mueller-Hinton broth; 20 to 24 h, 37 °C, 0.002% polysorbate 80).
`CO[C@H]1[C@H](O[C@H]([C@H]2O[C@@H](n3ccc(=O)[nH]c3=O)[C@H](O)[C@@H]2O)[C@H](NCCCNC(=O)[C@@H](NC(=O)[C@@H](NC(=O)N[C@H](C(=O)O)C(C)C)[C@@H]2CCN=C(N)N2)[C@@H](O)C(C)C)C(=O)O)O[C@H](CN)[C@H]1O` gave an MIC90 of greater than 35 µg/mL (microplate alamar blue; ATCC 6051).
`CN(C)[C@@H]1C(O)=C(C(N)=O)C(=O)[C@@]2(O)C(O)=C3C(=O)c4c(O)cccc4[C@@](C)(O)[C@H]3C[C@@H]12` has a cell length of 2.64 µm and 2.81 µm and 2.6 µm (bacterial cytological profiling; ATCC 6633; concentration not given).
The EC50 of `CC[C@H](C)[C@H](N)C(=O)O` is reported as 2.3 µM (chemotaxis pathway, FRET; 168).
The MIC of `COc1ccc(N2N=C(C(C)=O)SC2=C(C#N)C(=O)c2ccc(Nc3cnccn3)cc2)cc1` is reported as 12.5 µg/mL (broth microdilution; ATCC 35021).
With `N[C@@H](Cc1ccccc1)C(=O)O` the EC50 was 48.6 µM (chemotaxis pathway, FRET; 168).
For `CN[C@H](CC(C)C)C(=O)N[C@H]1C(=O)N[C@@H](CC(N)=O)C(=O)N[C@H]2C(=O)N[C@H]3C(=O)N[C@H](C(=O)N[C@H](C(=O)O)c4cc(O)cc(O)c4-c4cc3ccc4O)[C@H](O)c3ccc(c(Cl)c3)Oc3cc2cc(c3O[C@@H]2O[C@H](CO)[C@@H](O)[C@H](O)[C@H]2O[C@H]2C[C@](C)(N)[C@H](O)[C@H](C)O2)Oc2ccc(cc2Cl)[C@H]1O`, the MIC was 0.25 µg/mL (broth microdilution; 168, cation-adjusted Mueller-Hinton broth; 20 to 24 h, 37 °C, 0.002% polysorbate 80).
For `O=C1C(Cl)=C(n2ccnc2)C(=O)c2ccccc21`, “zone of inhibition” read 9 mm (MTCC 1427; 10 µg/mL).
`NCC(=O)O` has an EC50 of 9.6 µM (chemotaxis pathway, FRET; 168).
For `CN[C@H](CC(C)C)C(=O)N[C@H]1C(=O)N[C@@H](CC(N)=O)C(=O)N[C@H]2C(=O)N[C@H]3C(=O)N[C@H](C(=O)N[C@H](C(=O)O)c4cc(O)cc(O)c4-c4cc3ccc4O)[C@H](O)c3ccc(c(Cl)c3)Oc3cc2cc(c3O[C@@H]2O[C@H](CO)[C@@H](O)[C@H](O)[C@H]2O[C@H]2C[C@](C)(N)[C@H](O)[C@H](C)O2)Oc2ccc(cc2Cl)[C@H]1O`, the MIC was 0.7 µg/mL (ATCC 6633).
With `CC(=O)OCC1=C(C(=O)O)N2C(=O)[C@@H](NC(=O)Cc3cccs3)[C@H]2SC1` the MIC was 6.25 µg/mL (broth microdilution; ATCC 35021).
`N[C@@H](Cc1c[nH]c2ccccc12)C(=O)O` has an EC50 of 115 µM (chemotaxis pathway, FRET; 168).
Under “zone of inhibition”, `Cc1ccc(C(C)C)c(OC2=C(Cl)C(=O)c3ccccc3C2=O)c1` is recorded as 17 mm (MTCC 1427; 10 µg/mL).
`N#CC(C#N)=C1SC(C(=O)c2ccc(Nc3cnccn3)cc2)=NN1c1ccccc1` gave an MIC of 50 µg/mL (broth microdilution; ATCC 35021).
`N[C@@H](CCC(=O)O)C(=O)O` has an EC50 of greater than 1000 µM (chemotaxis pathway, FRET; 168).
`O=C(O)c1cn(C2CC2)c2cc(N3CCNCC3)c(F)cc2c1=O` gave a cell perimeter of 13.6 µm and 14.6 µm and 13.3 µm (bacterial cytological profiling; ATCC 6633; concentration not given).
For `NC(=O)CC[C@H](N)C(=O)O`, the EC50 was 5.9 µM (chemotaxis pathway, FRET; 168).
`CC1CCC(C(C)C)C(OC2=C(Cl)C(=O)c3ccccc3C2=O)C1` (centres unmarked): “zone of inhibition” 16 mm (MTCC 1427; 10 µg/mL).
`CC1=N/C(=C\c2cc(F)c(O)c(F)c2)C(=O)N1C` gave a cellular fluorescence of 600% (flow cytometry; IPTG-induced expressing strain; 50 µM, cytoplasmic accumulation; relative to: uninduced cells).
`C[C@H](N)C(=O)O` gave an EC50 of 1.2 µM (chemotaxis pathway, FRET; 168).
The MIC of `N#CC(C#N)=C1SC(C(=O)c2ccc(Nc3cnccn3)cc2)=NN1c1ccc([N+](=O)[O-])cc1` is reported as 3.12 µg/mL (broth microdilution; ATCC 35021).

Repeated from above:
`O=C(O)c1cn(C2CC2)c2cc(N3CCNCC3)c(F)cc2c1=O` gave a cell perimeter of 13.6 µm and 14.6 µm and 13.3 µm (bacterial cytological profiling; ATCC 6633; concentration not given).
For `CC[C@H](C)CCCCC(=O)N[C@@H](CCN)C(=O)N[C@H](C(=O)N[C@@H](CCN)C(=O)N[C@H]1CCNC(=O)[C@H]([C@@H](C)O)NC(=O)[C@H](CCN)NC(=O)[C@H](CCN)NC(=O)[C@H](CC(C)C)NC(=O)[C@@H](CC(C)C)NC(=O)[C@H](CCN)NC1=O)[C@@H](C)O`, the MIC was 8 µg/mL (broth microdilution; 168, cation-adjusted Mueller-Hinton broth; 20 to 24 h, 37 °C, 0.002% polysorbate 80).
